Measured values pooled from the literature.
Each numbered part is a random draw from the data of one study; scales do not carry over between parts. Substitutions count along the parent as printed.

Set 1 — technique: aptamer microarray, sandwich; molecule type: DNA with 2'F-ANA; medium: in vitro; concentration: 200 nM; added: Cy3 exosite-II aptamer, 400 nM; direction: higher = stronger binding; quantity: mean fluorescence intensity; sequence: GGTTGGTGTGGTTGG
Target: Prothrombin, mature alpha-thrombin (F2, Homo sapiens, UniProt P00734)
Setting: whole 15-mer aptamer, many near background
2'F-ANA at 2 5 6 10 13 14 15: 57.7 a.u.
2'F-ANA at 3 4 9 11 12 13 14: 366 a.u.
2'F-ANA at 3 5 7 8 9 11 12 15: 224 a.u.
2'F-ANA at 2 3 6 7 13 14 15: 355 a.u.
2'F-ANA at 1 4 5 6 9 10 11 12 13 14: 47.3 a.u.
2'F-ANA at 1 8 11 12 13: 300 a.u.
2'F-ANA at 2 4 6 8 9 11 12 13 14 15: 79.7 a.u.
2'F-ANA at 2 5 9 10 12 14: 44.1 a.u.
2'F-ANA at 2 6 8 10 11 13 14: 87.7 a.u.
2'F-ANA at 6 12 13 15: 621 a.u.
2'F-ANA at 1 3 5 8 9 15: 69.3 a.u.
2'F-ANA at 1 2 3 4 6 10 11 12 13: 63.8 a.u.

Set 2 — target: CCNB2, cyclin fold, Cln2 fusion (human); technique: yeast growth competition, sequencing; medium: yeast; setting: strong parent motif; baseline: not given; direction: higher = stronger binding; quantity: normalised enrichment score
Starting sequence: PKMYT1 docking peptide (human); SFEPRNLLSLFED; partner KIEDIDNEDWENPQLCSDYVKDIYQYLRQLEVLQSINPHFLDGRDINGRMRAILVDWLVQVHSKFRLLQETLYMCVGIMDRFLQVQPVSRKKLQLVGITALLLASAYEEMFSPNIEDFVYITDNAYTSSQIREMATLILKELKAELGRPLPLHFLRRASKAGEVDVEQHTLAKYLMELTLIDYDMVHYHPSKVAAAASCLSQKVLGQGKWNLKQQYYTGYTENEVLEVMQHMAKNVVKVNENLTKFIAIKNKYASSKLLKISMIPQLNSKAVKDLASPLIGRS
SFEPRNLLPLFED [S9P]: 2.39
SFRPRNLLSLFED [E3R]: 1.28
SFEPRNLLSRFED [L10R]: 0.0998
SFEPENLLSLFED [R5E]: 0.0457
QFEPRNLLSLFED [S1Q]: 1.23

Set 3 — technique: RNA Bind-n-Seq; molecule type: RNA; medium: in vitro; concentration: 365 nM; baseline: no-protein control; direction: higher = stronger binding; quantity: RBNS enrichment (R)
Target: RNA binding protein fox-1 homolog 2, RRM domain, GST-SBP tag (RBFOX2, Homo sapiens, UniProt O43251-10, residues 100-194)
Setting: natural RNA segment, single round, ends assumed
Constant ends, left off below: GGGAGUUCUACAGUCCGACGAUC … UGGAAUUCUCGGGUGCCAA
Construct (chain): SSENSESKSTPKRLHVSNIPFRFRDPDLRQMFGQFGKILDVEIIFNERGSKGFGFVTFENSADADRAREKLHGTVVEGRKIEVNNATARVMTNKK
UCAACUGUGCAAAAAACAAAAGAUGGAGUGUUUACAAGUAGACAUUCGUCAUCAGUUGUUCUUGAACAUGGUCUUUUAAAAACUAGUCAGAUGAAUUGUUUUCAUCUGAA: 0.267
CUUUUCCCUAGGCUGUUCCGCGUGGGUUACCUUAUCACCCUGGAGCACUUGGUAUUCCAGACCCCUGACAUGAGGAAUGCAGGUUCACACUGUAAAGAGUUUGUGAAAGG: 0.314
CAGAUGGUUGUGAGCCACCAUGUGGUUGCUGGGAAUUGAACUCAGGACCUUUGGAUAAGAAACCAGUGUUCUUAACUGCUGAGCCAUCUCUCCAGUUAGCUAACUGGAUU: 0.212
CAGGGCUAGGAGGGAGGAGCCUGCCCUUUUAACAGAACCCCAGUCACAUGCGGCUCAAGUCACUCAGAGGCUGUUGCAUUUCAGGGCUAUGUUGGUCCUUUGUUUACCUC: 0.892
CAUUCCAGAGUGCAUCAGAACUGUCAUCCCUUCCAGGACCUUCUCAGGAGUAACACAUCAGGUAUGUCAUCAGCGCUGGGAACCGUGAACGCCAAGGACACUCGCCACUA: 0.358
CCCAGAAAGCUUACCUGCGAGCUUGGGGUUUGGCUUGAGUUCUCUUUUCCUUGAUUUCUCAGUAGGUGCUAGAGUCCGUUCACACCCUUCACUGUGCGCGCAGACACUGA: 0.749
GAGGGCUUACUGAUACAAUGAAAUGAGUUUCAUGACUUUUUUUUUUUUUAAACACUUUUUGAAAUAGAGUGUGCUGUGUUUAAAACCAAAAAUAUGCAUGUUGUCUCUGA: 10.6
ACCCUCCCUCAGCCUCCAGAGGACUGAGAUAUGUGUGUGCACCUCCCAUCUCGCUCAGCACAGGGUUUCUGUGGGAUGAGUUUGAUUCUCUUGUUCUCACUGCUGAACUG: 0.363

Further values, each from its own experiment
PhoQ, residues 284 288 289 292 302 303 ASASEQ  fold induction (PhoP, residues 12 14 15 18 19 NQCAL (Escherichia coli, UniProt P23836); Sort-seq, item: YFP reporter; E. coli; PhoQ-PhoP variant library, added: 10 µM Mg2+; baseline: high Mg2+ state, higher = stronger signaling): 21.5

Repeated from above (set 1):
2'F-ANA at 2 3 6 7 13 14 15: 355 a.u.
2'F-ANA at 1 4 5 6 9 10 11 12 13 14: 47.3 a.u.
2'F-ANA at 1 8 11 12 13: 300 a.u.
